Published values pooled from the literature.
A part holds a random share of what one study measured. Positions count from the first letter of the parent shown.
Chain of UniProt Q15831 (whole entry, looked up): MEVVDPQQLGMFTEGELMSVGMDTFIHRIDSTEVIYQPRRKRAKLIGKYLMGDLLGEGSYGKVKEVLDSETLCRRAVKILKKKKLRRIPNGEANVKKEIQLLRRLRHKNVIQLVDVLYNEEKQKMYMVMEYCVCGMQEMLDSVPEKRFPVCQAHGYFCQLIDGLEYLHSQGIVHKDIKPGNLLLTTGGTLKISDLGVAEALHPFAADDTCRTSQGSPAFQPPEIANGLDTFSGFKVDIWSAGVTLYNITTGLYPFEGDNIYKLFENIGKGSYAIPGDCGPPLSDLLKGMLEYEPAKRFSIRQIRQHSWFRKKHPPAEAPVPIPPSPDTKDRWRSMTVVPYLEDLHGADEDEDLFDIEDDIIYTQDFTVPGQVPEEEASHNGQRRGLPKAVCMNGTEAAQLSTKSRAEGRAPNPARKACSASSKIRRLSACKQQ
Chain of UniProt Q14680 (whole entry, looked up): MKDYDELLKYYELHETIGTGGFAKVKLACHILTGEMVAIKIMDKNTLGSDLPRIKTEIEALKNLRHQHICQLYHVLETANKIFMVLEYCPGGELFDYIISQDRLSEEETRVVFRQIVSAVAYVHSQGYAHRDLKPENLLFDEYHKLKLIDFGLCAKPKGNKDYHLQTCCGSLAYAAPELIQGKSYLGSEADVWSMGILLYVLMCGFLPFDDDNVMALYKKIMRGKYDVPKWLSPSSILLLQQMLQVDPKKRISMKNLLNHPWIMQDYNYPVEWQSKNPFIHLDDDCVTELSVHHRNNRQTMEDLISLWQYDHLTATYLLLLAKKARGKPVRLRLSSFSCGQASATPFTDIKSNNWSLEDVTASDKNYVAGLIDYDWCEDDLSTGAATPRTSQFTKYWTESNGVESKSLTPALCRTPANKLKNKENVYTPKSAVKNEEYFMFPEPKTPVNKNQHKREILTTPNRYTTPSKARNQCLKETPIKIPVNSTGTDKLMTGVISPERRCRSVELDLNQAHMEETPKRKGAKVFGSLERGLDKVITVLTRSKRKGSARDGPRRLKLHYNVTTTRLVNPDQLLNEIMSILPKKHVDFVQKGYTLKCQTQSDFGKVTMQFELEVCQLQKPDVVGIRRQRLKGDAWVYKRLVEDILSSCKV
Chain of UniProt Q52WX2 (whole entry, looked up): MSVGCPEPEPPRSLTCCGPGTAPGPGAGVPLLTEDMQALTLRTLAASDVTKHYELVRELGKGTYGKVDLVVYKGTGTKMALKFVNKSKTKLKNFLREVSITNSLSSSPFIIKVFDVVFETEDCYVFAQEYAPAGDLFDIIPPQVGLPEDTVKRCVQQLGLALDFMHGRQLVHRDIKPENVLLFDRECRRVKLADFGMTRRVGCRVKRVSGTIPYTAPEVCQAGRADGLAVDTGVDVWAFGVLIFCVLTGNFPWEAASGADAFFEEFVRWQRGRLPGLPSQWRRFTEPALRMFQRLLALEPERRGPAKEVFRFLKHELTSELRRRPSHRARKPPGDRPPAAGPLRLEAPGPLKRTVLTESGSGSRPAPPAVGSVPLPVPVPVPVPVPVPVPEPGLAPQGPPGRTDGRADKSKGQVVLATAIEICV
Chain of UniProt Q15759 (whole entry, looked up): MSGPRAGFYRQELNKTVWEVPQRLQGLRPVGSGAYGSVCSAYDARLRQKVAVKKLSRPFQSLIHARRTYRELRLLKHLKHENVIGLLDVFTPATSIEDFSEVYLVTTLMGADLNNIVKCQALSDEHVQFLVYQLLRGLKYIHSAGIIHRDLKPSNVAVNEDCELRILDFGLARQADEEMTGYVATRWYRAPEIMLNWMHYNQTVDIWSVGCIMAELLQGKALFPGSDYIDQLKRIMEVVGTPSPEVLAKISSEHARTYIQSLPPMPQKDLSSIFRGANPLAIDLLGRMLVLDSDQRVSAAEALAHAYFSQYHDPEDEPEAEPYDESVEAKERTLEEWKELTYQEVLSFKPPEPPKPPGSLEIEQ
Chain of UniProt P49841 (whole entry, looked up): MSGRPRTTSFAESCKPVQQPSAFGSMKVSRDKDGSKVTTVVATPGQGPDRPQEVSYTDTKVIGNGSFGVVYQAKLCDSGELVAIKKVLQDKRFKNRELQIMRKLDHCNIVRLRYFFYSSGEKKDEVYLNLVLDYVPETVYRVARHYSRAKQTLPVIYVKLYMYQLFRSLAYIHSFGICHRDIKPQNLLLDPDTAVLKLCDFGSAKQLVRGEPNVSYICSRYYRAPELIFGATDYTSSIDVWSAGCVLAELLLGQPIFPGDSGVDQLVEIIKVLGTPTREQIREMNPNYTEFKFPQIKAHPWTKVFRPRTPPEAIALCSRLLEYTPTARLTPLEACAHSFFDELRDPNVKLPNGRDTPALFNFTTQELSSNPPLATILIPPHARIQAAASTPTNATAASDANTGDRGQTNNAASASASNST
Chain of UniProt P42336 (whole entry, unmodified, looked up): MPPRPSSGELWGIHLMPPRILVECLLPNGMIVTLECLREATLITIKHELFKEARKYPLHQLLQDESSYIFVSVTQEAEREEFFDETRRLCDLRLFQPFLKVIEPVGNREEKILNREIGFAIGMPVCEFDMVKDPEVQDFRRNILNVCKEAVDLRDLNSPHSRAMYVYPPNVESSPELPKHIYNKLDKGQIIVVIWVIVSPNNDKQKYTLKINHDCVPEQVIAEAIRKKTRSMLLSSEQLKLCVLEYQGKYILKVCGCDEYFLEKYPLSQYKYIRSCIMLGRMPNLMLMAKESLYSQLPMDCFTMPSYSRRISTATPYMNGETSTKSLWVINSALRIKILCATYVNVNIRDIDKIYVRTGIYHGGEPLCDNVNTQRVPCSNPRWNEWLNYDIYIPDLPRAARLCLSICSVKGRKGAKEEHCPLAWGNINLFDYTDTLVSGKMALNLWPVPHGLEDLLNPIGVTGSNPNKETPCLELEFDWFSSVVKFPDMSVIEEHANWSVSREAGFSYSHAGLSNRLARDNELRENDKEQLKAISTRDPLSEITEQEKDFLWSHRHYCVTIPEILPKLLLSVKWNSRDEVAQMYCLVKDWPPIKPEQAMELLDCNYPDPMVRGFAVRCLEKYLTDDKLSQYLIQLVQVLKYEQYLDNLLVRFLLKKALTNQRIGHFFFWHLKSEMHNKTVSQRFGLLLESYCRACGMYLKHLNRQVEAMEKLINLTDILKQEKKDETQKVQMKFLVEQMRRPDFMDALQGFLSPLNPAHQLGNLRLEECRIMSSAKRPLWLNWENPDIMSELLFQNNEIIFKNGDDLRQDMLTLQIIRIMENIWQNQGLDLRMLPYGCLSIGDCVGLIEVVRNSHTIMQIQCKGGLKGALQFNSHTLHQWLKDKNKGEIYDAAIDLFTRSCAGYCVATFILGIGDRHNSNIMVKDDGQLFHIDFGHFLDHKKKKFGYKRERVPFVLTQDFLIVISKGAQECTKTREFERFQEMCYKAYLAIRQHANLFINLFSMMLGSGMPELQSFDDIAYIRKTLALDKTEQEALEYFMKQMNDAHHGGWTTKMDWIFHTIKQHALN
Chain of UniProt Q9BWU1 (whole entry, looked up): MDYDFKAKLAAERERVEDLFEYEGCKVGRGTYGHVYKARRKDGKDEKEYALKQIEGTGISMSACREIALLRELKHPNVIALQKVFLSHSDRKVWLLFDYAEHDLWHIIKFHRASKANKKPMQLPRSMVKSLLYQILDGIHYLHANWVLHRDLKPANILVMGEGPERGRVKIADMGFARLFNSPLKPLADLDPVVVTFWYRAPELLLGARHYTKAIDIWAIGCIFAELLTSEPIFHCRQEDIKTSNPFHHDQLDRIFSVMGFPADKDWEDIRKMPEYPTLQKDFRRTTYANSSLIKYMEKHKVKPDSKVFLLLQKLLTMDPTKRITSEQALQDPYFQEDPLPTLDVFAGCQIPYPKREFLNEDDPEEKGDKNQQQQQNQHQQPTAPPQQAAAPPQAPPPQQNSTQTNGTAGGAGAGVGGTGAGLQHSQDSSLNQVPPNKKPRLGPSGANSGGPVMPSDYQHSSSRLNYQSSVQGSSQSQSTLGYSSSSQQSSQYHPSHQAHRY
Chain of UniProt Q9UQB9 (whole entry, looked up): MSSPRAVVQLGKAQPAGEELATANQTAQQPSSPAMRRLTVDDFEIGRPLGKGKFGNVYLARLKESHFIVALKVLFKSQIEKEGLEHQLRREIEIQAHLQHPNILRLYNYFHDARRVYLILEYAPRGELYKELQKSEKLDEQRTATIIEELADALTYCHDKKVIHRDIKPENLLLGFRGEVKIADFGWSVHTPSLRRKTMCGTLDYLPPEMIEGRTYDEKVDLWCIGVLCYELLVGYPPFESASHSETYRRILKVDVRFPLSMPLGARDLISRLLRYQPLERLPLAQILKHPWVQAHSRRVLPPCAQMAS

Block 1 — target: CEP164, C-terminal peptide (human); method: DHFR complementation, deep sequencing; matrix: yeast; reference: wild type; reading: higher = weaker binding
Setting: single substitutions, model-inferred values
Starting sequence: PDZK1, PDZ domain 2 (human); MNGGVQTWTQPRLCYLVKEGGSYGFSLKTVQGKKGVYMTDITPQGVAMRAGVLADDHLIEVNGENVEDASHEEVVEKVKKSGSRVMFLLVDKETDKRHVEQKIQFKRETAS; partner HNRVKVYRF
| Change | binding free energy change [kcal/mol] |
| --- | --- |
| A47G | 0.745 |
| N62Y | 0.909 |
| S81A | 0.0403 |
| S81G | 0.481 |
| D40P | 0.463 |
| S22L | -0.122 |
| D56R | 1.45 |
| F25L | 0.794 |

Block 2 — mode: antagonist
Target: Beta-1 adrenergic receptor (ADRB1, Homo sapiens, UniProt P08588)
Chain of UniProt P08588 (whole entry, looked up): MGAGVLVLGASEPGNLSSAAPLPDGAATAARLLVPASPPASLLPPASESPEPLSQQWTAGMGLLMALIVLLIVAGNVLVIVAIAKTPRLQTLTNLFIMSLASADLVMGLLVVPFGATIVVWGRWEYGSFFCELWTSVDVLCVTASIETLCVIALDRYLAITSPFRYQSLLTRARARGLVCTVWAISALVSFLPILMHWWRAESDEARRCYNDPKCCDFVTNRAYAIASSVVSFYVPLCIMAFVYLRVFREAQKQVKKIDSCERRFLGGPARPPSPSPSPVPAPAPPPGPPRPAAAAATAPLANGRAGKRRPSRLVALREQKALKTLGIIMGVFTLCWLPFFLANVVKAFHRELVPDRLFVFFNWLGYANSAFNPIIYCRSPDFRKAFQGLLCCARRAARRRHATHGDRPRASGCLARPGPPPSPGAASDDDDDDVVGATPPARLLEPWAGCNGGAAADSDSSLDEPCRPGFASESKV
| Compound | IC50 [µM] |
| --- | --- |
| COCCN1CCNc2nc(CNCC(C)(C)CO)n(Cc3ccccc3)c2C1=O | ≥ 100 |
| CCOc1ccccc1N1CCN(C(=O)C2CNCCO2)CC1 (centres unmarked) | ≥ 100 |
| Cc1noc2c(-c3cnn(C)c3)cc(-c3cccs3)nc12 | ≥ 100 |

Block 3 — tested at: 1 µM
SMILES: CN(C(=O)c1ccccc1)c1cc(N(C)c2ccc3c(c2)CCc2ccc(C(=O)NCCN4CCOCC4)cc2C3=O)ccc1F
| target | test | remaining binding |
| --- | --- | --- |
| MAP3K15 (Homo sapiens, UniProt Q6ZN16) | cell-free assay, competition with immobilised ligand | 100% |
| MELK (Homo sapiens, UniProt Q14680) | cell-free assay, competition with immobilised ligand | 100% |
| SBK1 (Homo sapiens, UniProt Q52WX2) | cell-free assay, competition with immobilised ligand | 93% |
| MET (Homo sapiens, UniProt P08581, M1250T) | cell-free assay, competition with immobilised ligand | 91% |
| MAP3K6 (Homo sapiens, UniProt O95382) | cell-free assay, competition with immobilised ligand | 77% |
| MAPK11 (Homo sapiens, UniProt Q15759) | cell-free assay, competition with immobilised ligand | 92% |
| STK11 (Homo sapiens, UniProt Q15831) | cell-free assay, competition with immobilised ligand | 100% |
| PIK3CA (Homo sapiens, UniProt P42336, Q546K) | cell-free assay, competition with immobilised ligand | 70% |
| GSK3B (Homo sapiens, UniProt P49841) | cell-free assay, competition with immobilised ligand | 100% |
| CDK19 (Homo sapiens, UniProt Q9BWU1) | competition binding | 85% |
| Aurora kinase C (AURKC, Homo sapiens, UniProt Q9UQB9) | cell-free assay, competition with immobilised ligand | 95% |
| FGFR1 (Homo sapiens, UniProt P11362) | cell-free assay, competition with immobilised ligand | 84% |

Single results of other studies
| Compound | tested on | test | system | conditions | quantity | value |
| --- | --- | --- | --- | --- | --- | --- |
| CC(C)(C)OC(=O)N[C@@H](CC(=O)N1CCCN(C(=O)CN2CCC(c3ccccc3)CC2)CC1)Cc1cc(F)c(F)cc1F |  |  | mouse, microsomes or S9 | 2 µM, 0.5 h | remaining compound | < 1% |
| CC(C)n1cnc(-c2ccc(F)cc2)c1-c1ncc(C(=O)Nc2ccc(N3CCN(C)CC3)cc2)[nH]1 |  |  | human, idiopathic pulmonary fibrosis | 30 mg once daily, trial, treatment-emergent | patients with Eczema | 0% |
| COc1cc(C(=O)N2CCC(N3CCN(C)CC3)CC2)ccc1Nc1ncc2c(n1)N(C)c1ccccc1C(=O)N2C | mouse IKKε and TBK1 | probe labelling, KiNativ ADP probe | mouse brain lysate | 1 µM, LYS2 site DIkPGNIMR | inhibition | 4.6% |
